Results pooled from the literature.
Protocols differ between the studies behind these lines. Values joined by “and” are separate records of one study, mostly repeats; a detail may differ. Numbers after ± are the reported error.
HDAC8: Histone deacetylase 8 (HDAC8, Homo sapiens, UniProt Q9BY41)
Chain of UniProt Q9BY41 (whole entry, looked up): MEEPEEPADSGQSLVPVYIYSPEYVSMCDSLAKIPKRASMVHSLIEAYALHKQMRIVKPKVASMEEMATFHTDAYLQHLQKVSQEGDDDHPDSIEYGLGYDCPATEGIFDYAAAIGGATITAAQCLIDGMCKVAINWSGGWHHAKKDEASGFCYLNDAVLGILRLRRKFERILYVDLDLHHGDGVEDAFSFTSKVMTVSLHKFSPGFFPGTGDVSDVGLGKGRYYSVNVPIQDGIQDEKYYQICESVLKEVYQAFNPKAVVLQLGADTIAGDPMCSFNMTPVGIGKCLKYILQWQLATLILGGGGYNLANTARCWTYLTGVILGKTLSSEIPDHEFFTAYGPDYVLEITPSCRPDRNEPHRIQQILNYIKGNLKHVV
CPL: CPL (Toxoplasma gondii, UniProt Q6DMN0)
PTGS1: Prostaglandin G/H synthase 1 (PTGS1, Ovis aries, UniProt P05979)
Chain of UniProt P05979 (whole entry, looked up): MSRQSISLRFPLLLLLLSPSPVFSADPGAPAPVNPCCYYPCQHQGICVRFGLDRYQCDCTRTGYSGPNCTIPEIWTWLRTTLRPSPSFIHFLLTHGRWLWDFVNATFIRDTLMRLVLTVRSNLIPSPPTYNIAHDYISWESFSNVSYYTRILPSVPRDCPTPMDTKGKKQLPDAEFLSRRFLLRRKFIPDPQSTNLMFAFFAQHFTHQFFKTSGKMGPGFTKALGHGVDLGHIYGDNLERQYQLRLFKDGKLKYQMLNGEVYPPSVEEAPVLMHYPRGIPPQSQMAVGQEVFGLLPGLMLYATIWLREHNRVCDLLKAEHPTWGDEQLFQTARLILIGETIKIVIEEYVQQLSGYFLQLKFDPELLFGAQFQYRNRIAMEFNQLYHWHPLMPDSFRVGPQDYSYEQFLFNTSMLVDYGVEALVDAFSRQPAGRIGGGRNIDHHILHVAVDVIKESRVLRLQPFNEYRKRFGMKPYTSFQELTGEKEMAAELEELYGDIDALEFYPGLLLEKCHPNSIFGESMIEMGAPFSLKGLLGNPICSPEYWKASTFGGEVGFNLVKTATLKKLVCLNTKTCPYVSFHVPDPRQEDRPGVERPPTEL
P4HB: Protein disulfide-isomerase (P4HB, Homo sapiens, UniProt P07237)
Chain of UniProt P07237 (whole entry, looked up): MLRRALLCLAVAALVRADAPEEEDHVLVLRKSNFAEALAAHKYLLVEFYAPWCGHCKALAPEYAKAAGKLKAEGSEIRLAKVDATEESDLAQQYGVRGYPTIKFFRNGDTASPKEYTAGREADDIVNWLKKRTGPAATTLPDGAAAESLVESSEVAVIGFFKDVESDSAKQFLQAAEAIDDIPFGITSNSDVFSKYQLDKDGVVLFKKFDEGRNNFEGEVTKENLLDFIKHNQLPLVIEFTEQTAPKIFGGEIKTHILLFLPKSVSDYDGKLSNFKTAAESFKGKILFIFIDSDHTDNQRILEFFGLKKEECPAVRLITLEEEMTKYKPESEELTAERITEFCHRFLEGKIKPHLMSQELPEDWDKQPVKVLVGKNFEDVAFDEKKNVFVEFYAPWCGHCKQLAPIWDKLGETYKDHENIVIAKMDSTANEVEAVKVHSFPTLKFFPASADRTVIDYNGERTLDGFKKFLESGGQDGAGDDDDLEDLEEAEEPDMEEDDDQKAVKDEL
Chain of UniProt P55211 (whole entry, looked up): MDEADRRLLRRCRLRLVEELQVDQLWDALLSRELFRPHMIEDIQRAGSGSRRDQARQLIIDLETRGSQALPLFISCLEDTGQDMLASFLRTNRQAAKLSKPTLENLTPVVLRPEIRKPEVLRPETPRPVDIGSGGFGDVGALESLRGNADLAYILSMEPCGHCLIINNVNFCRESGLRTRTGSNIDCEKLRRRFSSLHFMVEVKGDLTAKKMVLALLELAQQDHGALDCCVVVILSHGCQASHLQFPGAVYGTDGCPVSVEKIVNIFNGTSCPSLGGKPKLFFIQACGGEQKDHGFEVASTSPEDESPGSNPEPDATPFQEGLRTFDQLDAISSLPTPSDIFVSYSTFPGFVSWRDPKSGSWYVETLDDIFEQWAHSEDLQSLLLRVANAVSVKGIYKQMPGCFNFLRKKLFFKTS
Chain of UniProt P51878 (whole entry, looked up): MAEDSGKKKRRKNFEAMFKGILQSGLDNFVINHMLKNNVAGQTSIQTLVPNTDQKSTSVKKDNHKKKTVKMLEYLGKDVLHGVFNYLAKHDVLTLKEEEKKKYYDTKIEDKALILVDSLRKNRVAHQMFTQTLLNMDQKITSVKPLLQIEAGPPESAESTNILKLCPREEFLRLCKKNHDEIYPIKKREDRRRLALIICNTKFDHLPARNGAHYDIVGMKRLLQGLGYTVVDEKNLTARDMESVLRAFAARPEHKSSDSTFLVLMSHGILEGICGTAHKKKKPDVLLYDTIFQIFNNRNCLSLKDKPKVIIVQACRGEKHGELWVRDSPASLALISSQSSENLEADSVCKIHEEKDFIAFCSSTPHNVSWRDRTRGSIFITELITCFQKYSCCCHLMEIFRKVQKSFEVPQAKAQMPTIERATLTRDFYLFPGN
Chain of UniProt Q9UBN7 (whole entry, looked up): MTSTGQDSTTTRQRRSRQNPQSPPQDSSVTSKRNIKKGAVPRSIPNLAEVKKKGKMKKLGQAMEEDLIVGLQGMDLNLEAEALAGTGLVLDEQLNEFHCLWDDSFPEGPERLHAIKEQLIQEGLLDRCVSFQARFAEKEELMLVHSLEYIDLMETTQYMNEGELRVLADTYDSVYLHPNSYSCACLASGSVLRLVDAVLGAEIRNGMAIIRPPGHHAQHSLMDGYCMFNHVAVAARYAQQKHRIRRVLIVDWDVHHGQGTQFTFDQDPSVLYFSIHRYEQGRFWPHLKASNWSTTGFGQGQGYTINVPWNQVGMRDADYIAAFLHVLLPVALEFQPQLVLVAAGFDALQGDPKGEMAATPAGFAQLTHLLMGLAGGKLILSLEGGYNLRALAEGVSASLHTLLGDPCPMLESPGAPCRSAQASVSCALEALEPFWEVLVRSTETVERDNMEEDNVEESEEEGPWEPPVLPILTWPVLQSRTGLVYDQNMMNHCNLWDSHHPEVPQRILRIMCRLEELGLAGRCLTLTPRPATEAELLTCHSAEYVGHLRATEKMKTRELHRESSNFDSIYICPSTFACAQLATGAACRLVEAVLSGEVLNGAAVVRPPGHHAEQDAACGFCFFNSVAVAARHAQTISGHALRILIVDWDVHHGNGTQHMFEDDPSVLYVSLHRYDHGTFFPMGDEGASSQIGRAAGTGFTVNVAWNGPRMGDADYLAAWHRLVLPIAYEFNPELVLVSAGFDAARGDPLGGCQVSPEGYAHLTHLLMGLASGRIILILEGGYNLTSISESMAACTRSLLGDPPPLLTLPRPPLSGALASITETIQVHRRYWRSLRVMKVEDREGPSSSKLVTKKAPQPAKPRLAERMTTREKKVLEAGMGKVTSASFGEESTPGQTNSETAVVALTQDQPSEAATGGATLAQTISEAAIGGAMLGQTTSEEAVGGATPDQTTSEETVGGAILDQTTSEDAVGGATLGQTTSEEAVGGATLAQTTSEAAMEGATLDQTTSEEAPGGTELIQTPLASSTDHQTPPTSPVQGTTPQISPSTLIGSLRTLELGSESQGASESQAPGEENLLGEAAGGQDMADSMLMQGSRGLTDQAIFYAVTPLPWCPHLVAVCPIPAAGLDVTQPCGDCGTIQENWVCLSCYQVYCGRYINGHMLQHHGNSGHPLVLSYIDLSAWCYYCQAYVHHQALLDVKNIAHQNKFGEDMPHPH
Chain of UniProt O14965 (whole entry, looked up): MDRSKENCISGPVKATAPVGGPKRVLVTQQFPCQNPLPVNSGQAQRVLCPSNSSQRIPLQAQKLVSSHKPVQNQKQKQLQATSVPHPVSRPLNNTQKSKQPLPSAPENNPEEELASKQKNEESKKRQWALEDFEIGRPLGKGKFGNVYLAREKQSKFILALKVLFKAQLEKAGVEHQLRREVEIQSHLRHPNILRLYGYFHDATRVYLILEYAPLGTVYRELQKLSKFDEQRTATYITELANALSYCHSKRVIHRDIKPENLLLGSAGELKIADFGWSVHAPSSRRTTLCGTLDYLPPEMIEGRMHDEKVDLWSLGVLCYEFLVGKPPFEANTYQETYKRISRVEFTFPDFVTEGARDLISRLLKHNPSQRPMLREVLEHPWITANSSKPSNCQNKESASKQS
Chain of UniProt P22459 (whole entry, looked up): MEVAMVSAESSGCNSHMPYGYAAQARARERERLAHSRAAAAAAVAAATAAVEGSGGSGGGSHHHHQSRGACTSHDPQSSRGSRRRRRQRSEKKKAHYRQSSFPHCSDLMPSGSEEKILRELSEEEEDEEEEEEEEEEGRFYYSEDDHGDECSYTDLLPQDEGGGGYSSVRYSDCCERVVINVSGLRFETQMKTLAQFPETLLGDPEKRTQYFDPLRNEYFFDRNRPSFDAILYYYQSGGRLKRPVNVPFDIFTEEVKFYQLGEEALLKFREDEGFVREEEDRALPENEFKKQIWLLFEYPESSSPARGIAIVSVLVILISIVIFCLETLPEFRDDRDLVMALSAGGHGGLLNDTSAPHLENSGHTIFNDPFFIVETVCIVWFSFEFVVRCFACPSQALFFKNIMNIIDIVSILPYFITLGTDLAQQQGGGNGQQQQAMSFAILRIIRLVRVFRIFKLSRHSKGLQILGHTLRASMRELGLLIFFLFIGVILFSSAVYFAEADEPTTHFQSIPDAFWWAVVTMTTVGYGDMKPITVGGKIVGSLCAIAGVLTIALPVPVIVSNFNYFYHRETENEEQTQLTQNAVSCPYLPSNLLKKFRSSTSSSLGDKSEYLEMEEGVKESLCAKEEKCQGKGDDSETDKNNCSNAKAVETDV
Chain of UniProt P62937 (whole entry, looked up): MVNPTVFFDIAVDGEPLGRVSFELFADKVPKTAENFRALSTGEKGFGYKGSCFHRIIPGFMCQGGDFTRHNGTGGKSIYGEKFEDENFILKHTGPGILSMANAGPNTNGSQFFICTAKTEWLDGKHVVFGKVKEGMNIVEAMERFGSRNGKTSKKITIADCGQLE

| SMILES | target | test | system | conditions | IC50 |
| --- | --- | --- | --- | --- | --- |
| O=C(CCCCCCC(=O)Nc1ccc(N=Nc2ccccc2)cc1)NO | HDAC8 | enzyme activity, inhibitor | – | cis isomer, irradiated | 0.777 ± 0.16 µM |
| CCCCN(Cc1ccc(F)cc1)c1nc(C#N)nc(N2CCOCC2)n1 | CPL | enzyme activity, inhibitor, Z-L-R-AMC hydrolysis fluorescence | – | – | 0.117 µM |
| C[C@@H]1CCN(c2nc3ccc(Cl)cc3o2)CCN1S(=O)(=O)c1ccccc1 | HCRTR2 (Homo sapiens, UniProt O43614) | calcium signal, antagonist, fluorescence | – | – | 1.52 µM |
| CC(C)[C@@H](NC(=O)[C@@H](C)c1cccc(C(=O)c2ccccc2)c1)C(=O)N[C@H](CCC(=O)O)C(=O)N[C@@H](C(=O)N[C@H](CCC(=O)O)C(=O)O)C(C)C | PTGS1 | enzyme activity, inhibitor, fluorescence | – | – | 27.7 µM |
| NC1CC1c1ccc(NC(=O)c2ccc(-c3ccccc3)cc2)cc1 (stereo not drawn) | Lysine-specific histone demethylase 1A, with CoREST (KDM1A, Homo sapiens, UniProt O60341) | demethylase activity, inhibitor, Amplex UltraRed HRP | – | 15 min preincubation, with: H3K4me1 peptide, CoREST | 0.051 ± 0.008 µM |
| CC[C@H](C)[C@@H]1NC(=O)[C@H](CC(C)C)NC(=O)[C@@](C)(NC(=O)[C@H](Cc2ccccc2)NC(=O)[C@H](Cc2ccc(O)cc2)NC(=O)[C@H](C)NC(=O)[C@@H](N)[C@@H](C)O)CCCC=CCCC[C@@](C)(C(=O)NCC(=O)N[C@@H](CCCNC(=N)N)C(=O)N[C@@H](Cc2c[nH]c3ccccc23)C(N)=O)NC(=O)[C@H](CC(C)C)NC1=O | Gag-Pol polyprotein, integrase (gag-pol, Human immunodeficiency virus type 1 group M subtype B, UniProt P04585) | integrase strand transfer, inhibitor | – | – | 25 ± 7 µM |
| N#Cc1nc(N2CCOCC2)nc(N(Cc2ccc(F)cc2)CC2CCOCC2)n1 | CPL | enzyme activity, inhibitor, Z-L-R-AMC hydrolysis fluorescence | – | – | 0.4 µM |
| CC(C)P(=S)(NP(=S)(C(C)C)C(C)C)C(C)C | Alpha-amylase (Bacillus subtilis, UniProt P00691) | enzyme activity, inhibitor, absorbance | – | pH 6.9 | 268 µM |
| NCCc1c(SSc2[nH]c3cc(F)ccc3c2CCN)[nH]c2cc(F)ccc12 | KCNA4 (Homo sapiens, UniProt P22459) | peak potassium current, inhibitor, automated whole-cell patch clamp | CHO-K1, tetracycline-inducible | – | 26 µM |
| CC(C)CCN(Cc1ccccc1)c1nc(C#N)nc(N2CCOCC2)n1 | CPL | enzyme activity, inhibitor, Z-L-R-AMC hydrolysis fluorescence | – | – | 0.101 µM |
| C/C=C(\NC(=O)[C@@H]1CSC[C@H]2NC(=O)[C@H]([C@@H](C)CC)NC(=O)[C@H](CC(N)=O)NC(=O)[C@H](Cc3ccc(O)cc3)NC(=O)[C@H](Cc3c[nH]c4ccccc34)NC(=O)[C@H](C)NC(=O)[C@@H](N)CSSC[C@H](NC2=O)C(=O)N[C@@H](CCCNC(=N)N)C(=O)N[C@@H](CC(C)C)C(=O)NCC(=O)N[C@@H](CC(N)=O)C(=O)N[C@@H](CCCCN)C(=O)NCC(=O)N[C@@H](C)C(=O)N[C@@H](Cc2ccc(O)cc2)C(=O)N1)C(=O)N[C@@H](CC(C)C)C(=O)N[C@H]1C(=O)N[C@@H](C(C)C)C(=O)N[C@@H](CCC(=O)O)C(=O)N[C@@H](C)C(=O)N[C@@H](CCSC)C(=O)N2CCC[C@H]2C(=O)N[C@@H](CO)C(=O)N[C@H](C(=O)N[C@@H](CC(N)=O)C(=O)O)CS[C@H]1C | PBP1b (Escherichia coli) | transglycosylase activity, inhibitor | – | with: lipid II 4 µM | 50.7 ± 1.7 µM |
| O=C(Nc1ccccc1)c1ccccc1O | HDAC8 | enzyme activity, inhibitor | – | – | > 10 µM |
| O=C(Oc1nsnc1N1CCOCC1)c1ccccc1 | Immunoglobulin A1 protease autotransporter (Haemophilus influenzae, UniProt P44969) | inhibitor, gel-based | – | 1 h preincubation, 37 °C, with: human IgA1 200 nM | 22.7 ± 2.1 µM |
| COc1cc(O)cc(-c2cc3ccc(O)c(C/C=C(\C)CCC=C(C)C)c3o2)c1CC=C(C)C | GSK3B (Homo sapiens, UniProt P49841) | enzyme activity, inhibitor | – | – | 3.59 µM |
| CC[C@@H]1C(=O)N(C)c2cnc(Nc3ccc(C(=O)NCCCC[C@H](NC(=O)COCCOCCNC(=O)COCCOCCNC(=O)COCCOCCNC(=O)COCCOCCNC(=O)[C@@H](NC(=O)[C@H](CO)NC(=O)[C@H](Cc4cncn4CCCCCCCCc4ccccc4)NC(=O)[C@H](CC(C)C)NC(=O)[C@@H]4CCCN4C(C)=O)[C@@H](C)OP(=O)(O)O)C(N)=O)cc3OC)nc2N1C1CCCC1 | ALK (Homo sapiens, UniProt Q9UM73) | enzyme activity, inhibitor | – | – | > 10 µM |
| Cc1cc(Nc2nc(C[C@@]3(C(=O)O)CCN(Cc4cccc(Cl)c4F)[C@H](C)C3)cc(C)c2F)n[nH]1 | Aurora kinase A (AURKA, Homo sapiens, UniProt O14965) | enzyme activity, inhibitor | – | – | 0.000327 µM |
| COc1cccc(/C=C/C(=O)c2ccc(O)cc2C)c1OC | PTGS1 | enzyme activity, inhibitor, ELISA | – | – | 82 µM |
| CC[C@H](C)[C@@H]1NC(=O)[C@H](C(C)C)NC(=O)[C@H](C(C)C)NC(=O)[C@H](CC(C)C)NC(=O)C[C@@H](C(=O)N[C@@H](Cc2c[nH]c3ccccc23)C(=O)N[C@@H](CC(N)=O)C(=O)N[C@@H](C)C(=O)N2CCC[C@H]2C(=O)NCC(=O)N[C@@H](Cc2c[nH]c3ccccc23)C(=O)N[C@@H](Cc2ccc(O)cc2)C(=O)O)NC(=O)[C@H](C)NC(=O)[C@H](CCC(N)=O)NC(=O)[C@H](C(C)C)NC1=O | TLR4 (Homo sapiens, UniProt O00206) | LPS binding, antagonist, ELISA | – | – | 0.273 ± 0.022 µM |
| COC(=O)C1CN1S(=O)(=O)c1ccc(C(C)(C)C)cc1 (stereo not drawn) | P4HB | enzyme activity, inhibitor, absorbance | – | pH 7.6 | 0.42 µM |
| O=C(O)c1ccccc1Nc1ccc(Sc2ccccc2)cc1 | Androgen receptor (AR, Homo sapiens, UniProt P10275) | reporter gene, antagonist, MMTV-Luc reporter | MDA-kb2 | 20 h, with: 0.2 nM DHT (EC50) | 6.5 ± 5.7 µM |

| SMILES | target | test | system | conditions | IC50 |
| --- | --- | --- | --- | --- | --- |
| C=CCOC(=O)NCCCC[C@H](NC(=O)[C@H](Cc1ccc(O)cc1)NC(=O)CNC(=O)CNC(=O)[C@@H](NC(=O)[C@H](CO)NC(=O)[C@@H]1CCCN1C(=O)[C@H](C)NC(=O)[C@H](CO)NC(=O)[C@H](CCSC)NC(=O)[C@H](CCCNC(=N)N)NC(=O)[C@H](C)NC(=O)[C@H](C)NC(=O)[C@H](CCCCN)NC(C)=O)[C@@H](C)O)C(=O)NN | EZH2 (Homo sapiens, UniProt Q15910) | enzyme activity, inhibitor, radiometric | – | – | 56 µM |
| COc1cccc(/C=C/C(=O)c2cccc(C)c2)c1OC | PTGS1 | enzyme activity, inhibitor, ELISA | – | – | 164 µM |
| CC(C)(C)n1ccc(C(=O)N2CCN(c3nc4ccccc4s3)CC2)c1 | hh, C-terminal autoprocessing domain (Drosophila melanogaster, UniProt Q02936) | inhibitor, FRET | – | with: C-H-Y reporter 0.1 µM and cholesterol 1.5 µM | 2 µM |
| CC[C@H](C)[C@H](NC(=O)[C@H](Cc1ccccc1)NC(=O)[C@H](CCN)NC(=O)[C@H](CCCNC(=N)N)NC(=O)[C@H](Cc1ccccc1)NC(=O)[C@H](Cc1ccccc1)NC(=O)[C@H](CCN)NC(=O)[C@H](CO)NC(=O)[C@H](CC(C)C)NC(=O)[C@H](CCCNC(=N)N)NC(=O)[C@H](CCSC)NC(=O)[C@H](C)N)C(=O)N[C@@H](CC(C)C)C(=O)N[C@@H](CCC(N)=O)C(=O)N[C@@H](CCCNC(=N)N)C(=O)N[C@@H](CCCCN)C(=O)N[C@@H](CCCCN)C(=O)O | histidine kinase ComD (Streptococcus pneumoniae serotype 4, UniProt A0A0H2US84) | – | Streptococcus pneumoniae cells, Streptococcus pneumoniae | – | > 1 µM |
| CC[C@@H]1NC(=O)[C@H]([C@H](O)[C@H](C)Cc2nc3ccc(-c4nc5ccccc5s4)cc3[nH]2)N(C)C(=O)[C@H](C(C)C)N(C)C(=O)[C@H](CC(C)C)N(C)C(=O)[C@H](CC(C)C)N(C)C(=O)[C@@H](C)NC(=O)[C@H](C)NC(=O)[C@H](CC(C)C)N(C)C(=O)[C@H](C(C)C)NC(=O)[C@H](CC(C)C)N(C)C(=O)CN(C)C1=O | PPIA (Homo sapiens, UniProt P62937) | enzyme activity, inhibitor | – | – | 0.0166 µM |
| CC(C)=C/C=C/[C@@H](C)[C@H]1CC[C@@H]2[C@]1(C)CC[C@H]1[C@]23C=C[C@]2(C[C@@H](O)CC[C@]12C)OO3 | PTPN2 (Homo sapiens, UniProt P17706) | enzyme activity, inhibitor, absorbance | – | – | 23 µM |
| O=[N+]([O-])c1cccc(-c2cc(C3CC4CCC3N4)cnc2F)c1 (racemic) | Neuronal acetylcholine receptor; alpha4/beta2 (Rattus norvegicus, UniProt P09483+P12390) | ion current, antagonist, two-electrode voltage clamp | – | oocytes | 4.3 µM |
| O=C(CCCCCCC(=O)Nc1cccc(N=Nc2ccccc2)c1)NO | HDAC6 (Homo sapiens, UniProt Q9UBN7) | enzyme activity, inhibitor | – | cis isomer, irradiated | 0.047 ± 0.013 µM |
| CC(C)[C@H](NC(=O)[C@H](CC(N)=O)NC(=O)[C@H](Cc1ccc(O)cc1)NC(=O)[C@@H](N)CCCCN)C(=O)N[C@H]1CSC(=O)[C@H](Cc2ccccc2)NC(=O)[C@H](Cc2ccc(O)cc2)NC(=O)[C@H](CC(N)=O)NC(=O)[C@H](CO)NC1=O | Accessory gene regulator protein C (Staphylococcus epidermidis, UniProt O86861) | – | – | – | 0.00215 µM |
| CC(C)C[C@H](NC(=O)OCc1cccc(Cl)c1)C(=O)N[C@H](C=O)C[C@H]1CCNC1=O | Genome polyprotein, 3C protease (Human enterovirus D68, UniProt Q68T42) | 3C protease activity, inhibitor, FRET | – | – | 0.12 ± 0.02 µM |
| OCC[S+](CCO)C[C@@H](O)[C@@H](O)CO | Si (Rattus norvegicus, UniProt P23739) | enzyme activity, inhibitor | – | pH 6 | > 296 µM |
| C=CCCN(Cc1ccc(F)cc1)c1nc(C#N)nc(N2CCOCC2)n1 | CPL | enzyme activity, inhibitor, Z-L-R-AMC hydrolysis fluorescence | – | – | 0.144 µM |
| NC1=NN=Cc2ccccc2[O][V](=[O])[O]1.c1cnc2c(c1)ccc1cccnc12 | PTPN22 (Homo sapiens, UniProt Q9Y2R2) | enzyme activity, inhibitor | – | – | 6.82 ± 1.93 µM |
| CCCCc1ccc(S(=O)(=O)N2CC2C(=O)OC)cc1 (stereo not drawn) | P4HB | insulin reduction, inhibitor, turbidity | – | – | 0.08 to 0.085 µM |
| CC(C)C[C@@H]1NC(=O)[C@H](CCCNC(=N)N)NC(=O)[C@H](CCCCN)NC(=O)[C@H](CC(=O)O)NC(=O)[C@H](C)NC(=O)[C@@H](CO)NC1=O | Disintegrin and metalloproteinase domain-containing protein 8 (Homo sapiens, UniProt P78325) | enzyme activity, inhibitor, fluorescence | – | – | > 5 µM |
| COC(=O)C=CCCC(NC(=O)c1ccncc1C(=O)O)C(=O)NC(C(=O)N1CC(=O)CC1C(=O)NC(C(=O)NC(C(N)=O)C1CCCCC1)C1CCCCC1)C(C)(C)C (stereo not drawn) | Coagulation factor XIII A chain (Mouse, UniProt Q8BH61) | transamidation activity, inhibitor | – | mouse enzyme, with: dansylcadaverine into N,N-dimethylcasein | 0.015 ± 0.0012 µM |
| C/C=C1/CN2CCc3c([nH]c4ccccc34)[C@@H]2C[C@@H]1/C(=C\OC)C(=O)OC | HTR6 (Homo sapiens, UniProt P50406) | ligand displacement, radioligand | – | cell membranes | 12.2 µM |
| CC(=O)N[C@@H](Cc1ccccc1)C(=O)N[C@@H](CC(C)C)C(=O)N[C@H](C(=O)N[C@@H](CC(=O)O)C(=O)CCl)[C@@H](C)O | Caspase-5 (CASP5, Homo sapiens, UniProt P51878) | enzyme activity, inhibitor, fluorescence | – | – | 15.6 µM and 15 µM |
| CC(=O)N[C@@H](CC(C)C)C(=O)N[C@@H](CCC(=O)O)C(=O)N[C@@H](CO)C(=O)N[C@@H](CC(=O)O)C(=O)CCl | Caspase-9 (CASP9, Homo sapiens, UniProt P55211) | enzyme activity, inhibitor, fluorescence | – | – | 7.5 µM and 7.45 µM |
